Measured values collected from several papers.
Each numbered part is a random draw from the data of one study; scales do not carry over between parts. Substitutions count along the parent as printed.

Sample 1
Target: ABI1, truncated, D143A, DHFR fusion (Arabidopsis thaliana)
Technique: DHFR PCA, deep sequencing
Sample: yeast
Setting: methotrexate growth selection, single substitutions
Together with: (+)-ABA 4.8 µM
Baseline: wild-type fitted maximum
Direction: higher = stronger binding
Parent: PYL1, truncated, DHFR fusion (Arabidopsis thaliana); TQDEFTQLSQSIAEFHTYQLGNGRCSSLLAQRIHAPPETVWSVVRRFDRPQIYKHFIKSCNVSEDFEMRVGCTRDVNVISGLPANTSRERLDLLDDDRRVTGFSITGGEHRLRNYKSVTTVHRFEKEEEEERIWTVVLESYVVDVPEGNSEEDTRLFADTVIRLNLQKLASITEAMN
`R99A` — result for “relative binding score”: 5.84%.
`I133C` — result for “relative binding score”: 90.1%.
`A13K`: “relative binding score” 78.9%.
Under “relative binding score”, `D144R` is recorded as 8.61%.
For `S150L`, “relative binding score” read 10.6%.
Under “relative binding score”, `T101Q` is recorded as 4.32%.
For `L28G`, “relative binding score” read 2.08%.
`R46Y`: “relative binding score” -2.23%.
For `D75N`, “relative binding score” read 73.4%.
`T160M` — result for “relative binding score”: 57.1%.
Under “relative binding score”, `G81M` is recorded as 10.3%.
`Y18R`: “relative binding score” 32.8%.
`L156Y` — result for “relative binding score”: 52.2%.
`R98I`: “relative binding score” 34.6%.

Sample 2
Target: CCNB1, cyclin fold, Cln2 fusion (human)
Technique: yeast growth competition, sequencing
Sample: yeast
Setting: strong parent motif
Baseline: not given
Direction: higher = stronger binding
Parent: PKN2 docking peptide (human); VSAVQKLDFSDTM
`V4N` — result for “normalised enrichment score”: 0.135.
For `M13N`, “normalised enrichment score” read 2.27.
`V4K` — result for “normalised enrichment score”: 0.586.
Under “normalised enrichment score”, `S10I` is recorded as 1.37.
For `D8L`, “normalised enrichment score” read 1.09.
For `A3S`, “normalised enrichment score” read 0.782.
`L7F` — result for “normalised enrichment score”: -0.0736.
`F9V` — result for “normalised enrichment score”: -0.344.
`L7S` — result for “normalised enrichment score”: -0.369.
`S10E`: “normalised enrichment score” 2.79.
Under “normalised enrichment score”, `V4L` is recorded as 0.721.
Under “normalised enrichment score”, `A3H` is recorded as 1.19.
`L7Q` — result for “normalised enrichment score”: 0.00496.
For `T12I`, “normalised enrichment score” read 1.53.
`S2R` — result for “normalised enrichment score”: 1.95.
For `V1N`, “normalised enrichment score” read 2.64.

Sample 3
Target: Hepatocyte nuclear factor 3-alpha (Foxa1, Mus musculus, UniProt P35582, residues 1-468, full length assumed)
Technique: EMSA with sequencing
Molecule type: double-stranded DNA, one strand shown
Sample: in vitro
Tested at: 10 and 20 nM
Setting: whole designed probe, mean of two concentrations, ends assumed
Baseline: negative control set to 0
Direction: higher = stronger binding
Constant ends, left off below: GTGAGCGGTGCCCATTGATGGGGAAC … TTTCACTGGGATCGTGGGGAC
Target sequence (chain): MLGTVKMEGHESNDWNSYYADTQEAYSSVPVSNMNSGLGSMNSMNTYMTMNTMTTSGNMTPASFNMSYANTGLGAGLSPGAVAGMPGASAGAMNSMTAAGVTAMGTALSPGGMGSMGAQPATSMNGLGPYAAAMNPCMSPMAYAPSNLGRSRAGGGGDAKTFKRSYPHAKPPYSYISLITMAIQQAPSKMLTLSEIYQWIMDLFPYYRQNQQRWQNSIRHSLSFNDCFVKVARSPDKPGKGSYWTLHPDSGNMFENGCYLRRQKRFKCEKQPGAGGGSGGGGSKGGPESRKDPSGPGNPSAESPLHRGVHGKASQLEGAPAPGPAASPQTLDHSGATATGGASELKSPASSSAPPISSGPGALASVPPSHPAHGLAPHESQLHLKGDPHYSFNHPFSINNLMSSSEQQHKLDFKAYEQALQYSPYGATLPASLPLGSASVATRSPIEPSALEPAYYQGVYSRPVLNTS
For `ATGTGCTAAAAATACAAGACTTGCTTACGCAGAGAGCCGGGAGCTATGTTCCAGTGAGGGTGGAAACAAAAGCCTCAGTATAAGACTGTCAGGTGTTTACACTTAAGGGTGTGGTGCTCATGTGGCAACACGAGGTTGCTGGACTCCACATGCTGAGGCTCAAAGTAGAAATCACTGATCTTATGTCACATAT`, “normalised bound fraction” read 0.383 ratio.
Under “normalised bound fraction”, `ATACACTTCATTATGTCACTGTTGTTTGGTTGTGTTCTAGGCGAGAAACCACCTTTGGAAGGTTCACAGCAGCCCCAATTTAGCACTCTGCCAAGATTACATTGTCAGGCTGCATTGCCACTAGGGGGAACCATAGCTTTTTATCATCCCAGCCAGGGTGGCTGTGGGCAGCTTCTGCCTGGCAGGTAATAAG` is recorded as -0.0289 ratio.
`TCTAGTGCTCACAGAACGGCATCGCCGCGGCTCTTCTTCGCTGTGTGTCTGTGCCAAGTCTATCCAACGCCGCCAAAGTCCCCTCTGCTCTCAGCAAACACAGGTGAAGCTCTTGCCTTCTTAAATCCTTGACTTGACCTTGCTGTCCCATAAGTCCTGAATTTCTCCTTTTCACGAGGAAGCTCTTGGAACA`: “normalised bound fraction” 0.0617 ratio.
Under “normalised bound fraction”, `AAAAGTCTGAGCTCATTTATGGTATATTTATTAACAGCCCTAGCCTGGTAAAAAACAACATTGATTTGAACAGTTTTGGATATTTTCCAGCTCCTGTTTACTTTGTTAAAACCATAAAAAAAGTAATCTGGTTCCTTTTGACTTAAATAAGACAAAGAATTCAATACCGAGGCCCTGTTTATAGGTTGTTAAA` is recorded as 0.263 ratio.
`TCATGTAGACCCCGATGGACTAGCCAGAGAGCATCACAATGGGCCCCCAGAGTTCTCTCAGTGGCCAGTCTATGGACCTTCTTGATGGTCTGTGTTTACATTGTCATGATGCCATATGGAAATTTAATGGAACACATTCACAATTTATGCCGCTAAACAAGAAACGCCATTATCCTGTTAGTCTTTAAAACCA`: “normalised bound fraction” 0.372 ratio.

Sample 4
Target: Sal-like protein 4, full length isoform B (SALL4, Homo sapiens, UniProt Q9UJQ4-2, residues 1-616)
Technique: universal PBM
Molecule type: double-stranded DNA, one strand shown
Sample: in vitro
Tested at: not given
Setting: 8-mer, flanks averaged, mean of replicates
Direction: higher = stronger binding
Residues (chain): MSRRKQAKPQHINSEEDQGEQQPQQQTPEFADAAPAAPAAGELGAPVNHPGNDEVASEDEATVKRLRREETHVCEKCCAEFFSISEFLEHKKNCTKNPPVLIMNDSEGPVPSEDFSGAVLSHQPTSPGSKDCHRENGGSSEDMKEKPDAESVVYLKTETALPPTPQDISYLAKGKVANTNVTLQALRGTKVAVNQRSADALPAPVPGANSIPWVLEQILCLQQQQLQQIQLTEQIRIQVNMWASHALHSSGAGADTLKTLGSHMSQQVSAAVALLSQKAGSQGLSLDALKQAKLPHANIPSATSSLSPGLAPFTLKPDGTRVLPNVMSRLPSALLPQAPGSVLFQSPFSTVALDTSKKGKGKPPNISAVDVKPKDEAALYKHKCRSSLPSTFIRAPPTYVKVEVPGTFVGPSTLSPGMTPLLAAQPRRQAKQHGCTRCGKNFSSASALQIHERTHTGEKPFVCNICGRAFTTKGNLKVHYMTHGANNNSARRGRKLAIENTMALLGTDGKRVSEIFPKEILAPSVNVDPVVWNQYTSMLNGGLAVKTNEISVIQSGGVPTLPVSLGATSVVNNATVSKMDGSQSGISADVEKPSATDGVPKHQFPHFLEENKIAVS
`CTAAATCC` has an E-score of -0.16.
With `CTAGGTCC` the E-score was -0.281.
`GTCTACAC` gave an E-score of -0.105.
The E-score of `CACGATAA` is reported as 0.167.
`ACGCTCAT` gave an E-score of 0.0316.
With `GATTTGAC` the E-score was -0.00584.
With `AAGAACCG` the E-score was -0.169.
`ATGTCATA` has an E-score of 0.345.
For `CGCTGTTC`, the E-score was -0.177.
The E-score of `AGCACCTA` is reported as -0.0732.
`CCCTGCGC` has an E-score of -0.302.
`ACCTTCCG` gave an E-score of -0.113.
`ACATGCAA` gave an E-score of 0.146.
The E-score of `CACTCACG` is reported as -0.207.
`GCCTCTCC` gave an E-score of -0.239.
`CAACTTCC` gave an E-score of -0.168.
With `GTCCCCAA` the E-score was -0.0774.
`ACCCTCGT` gave an E-score of -0.251.
For `AGGGCACG`, the E-score was -0.22.
For `AGTAGTAT`, the E-score was 0.181.
With `AACGGCTT` the E-score was -0.123.
`TTGAGAAA` has an E-score of 0.264.
With `GTGCTAGA` the E-score was 0.0315.

A few entries again (sample 4):
With `GATTTGAC` the E-score was -0.00584.
With `AAGAACCG` the E-score was -0.169.
`ATGTCATA` has an E-score of 0.345.
For `CGCTGTTC`, the E-score was -0.177.
The E-score of `AGCACCTA` is reported as -0.0732.
`CCCTGCGC` has an E-score of -0.302.
